Experimental data from different studies.
Lines come from different studies, so protocols differ.
Target: Casein kinase I isoform alpha-like (CSNK1A1L, Homo sapiens, UniProt Q8N752)

The remaining activity of `COc1cc(Nc2nc(C)cc(-c3cnn4nc(OC)ccc34)n2)cc(C(F)(F)F)c1` is reported as 100% (inhibitor; 1 µM; baseline: control).
The remaining binding of `CC(C)=CC1OC(C)(C)C2C=C3C(=O)C(Cl)=CC(O)C3C3C(O)C4OC4C(=O)C132` (centres unmarked) is reported as 93% (cell-free assay, competition with immobilised ligand; 10 µM).
`C=CC(=O)N1Cc2nc(-c3cc(-c4cc(Cl)cnc4Cl)c(F)cc3F)n(-c3ccncn3)c2C1` gave an inhibition of 5.8% (cell-free assay; 1 µM).
`CNC1C[S+]2CC[S+]3CC[S+](C1)[Ru-4]321([N]=C=S)[n]2c3ccc(OC)cc3c3c4c(c5cc(F)c[n+]1c5c32)C(=O)NC4=O` (centres unmarked) gave a remaining binding of 89% (KinomeScan; 0.1 µM; baseline: untreated).
For `Cc1cnc2nc1Nc1cccc(c1)COC/C=C/COCc1cc(ccc1OCCN1CCOCC1)N2`, the remaining binding was 98% (binding; 0.1 µM).
For `CCN1CCN(Cc2ccc(C(=O)Nc3ccc(C)c(NCc4cnc5[nH]ccc5c4OC)c3)cc2C(F)(F)F)CC1`, the remaining binding was 100% (binding, competition with immobilised ligand; 1 µM).
With `Nc1ncc2c(n1)-c1c([nH]c3ccc(C4=CCOCC4)cc13)CCC2` the remaining binding was 100% (binding, competition with immobilised ligand; 1 µM).
With `C[C@H]1CN(C(=O)c2cn(-c3ccnc(N)n3)c3cc(C#CC4(O)CCCCC4)ccc23)CCN1` the inhibition was 44% (enzyme activity, inhibitor, FRET; 1 µM).
With `COc1cc(Nc2nccc(-c3cnn4nc(OC)ccc34)n2)cc(C(F)(F)F)c1` the remaining binding was 87% (binding, competition with immobilised ligand; 1 µM).
With `COc1c(Cl)cccc1Nc1c(-c2ccncc2C#C[C@@]2(C)CCCN2C(=O)/C=C/CN(C)C)[nH]c2c1C(=O)NCC2` the remaining binding was 100% (cell-free assay, competition with immobilised ligand; 3 µM).
`CCn1cc(C(=O)O)c(=O)c2c(N)c(F)c(NC3CCCCC3)cc21` gave an inhibition of 14.3% (kinase activity; 0.1 µM, with: ATP at Km).
With `CN1CCN(Cc2ccc(-c3ccc(CO[C@H]4CCC[C@@H]4NC(=O)c4cc(-c5cnn(C)c5)cnc4N)cc3)cc2)CC1` the inhibition was 4% (enzyme activity, inhibitor; 0.1 µM).
The remaining binding of `C=CC(=O)N1CCc2ccc(-n3c(=O)ccc4cnc5ccc(-c6cnn(C)c6)cc5c43)cc21` is reported as 100% (KINOMEscan; 1 µM; baseline: DMSO control).
The remaining binding of `Cc1ccc(-c2c(/C=C(\C#N)C(=O)NC(C)C)n(CCCO)c3ncnc(N)c23)cc1` is reported as 100% (cell-free assay, competition with immobilised ligand; 1 µM).
The remaining activity of `Nc1ncc(-c2cc(-c3cnn(CC(F)(F)F)c3)ncc2F)nc1C(=O)NC1CNCC(F)C1` (centres unmarked) is reported as 90.7% (enzyme activity; 1 µM; baseline: DMSO control).
With `C=CC(=O)N1CCCC(n2c(=O)c3ncccc3n(Cc3ccc(Oc4ccccc4)cc3)c2=O)C1` (centres unmarked) the remaining binding was 100% (cell-free assay, competition with immobilised ligand; 1 µM).
For `CNC(=O)C1CCN(c2cc(C)c(F)cc2NC(=O)c2ccc(-c3cc(O)ccc3C)c(C)c2)CC1`, the remaining binding was 7.2% (binding, competition with immobilised ligand; 1 µM).

A few entries again:
The remaining binding of `CC(C)=CC1OC(C)(C)C2C=C3C(=O)C(Cl)=CC(O)C3C3C(O)C4OC4C(=O)C132` (centres unmarked) is reported as 93% (cell-free assay, competition with immobilised ligand; 10 µM).
For `CNC(=O)C1CCN(c2cc(C)c(F)cc2NC(=O)c2ccc(-c3cc(O)ccc3C)c(C)c2)CC1`, the remaining binding was 7.2% (binding, competition with immobilised ligand; 1 µM).
